Measurements collected from several papers.
Protocols differ between the studies behind these lines.

Structure (SMILES) = CCCCCCCOc1ccc(CC[C@](N)(CO)COP(=O)(O)O)cc1C(F)(F)F; system = male humans, plasma; conditions = oral; endpoint = time to steady state; result = ~10 weeks
Structure (SMILES) = CC(C)[C@H](NC(=O)CNC(=O)[C@H](CCC(N)=O)NC(=O)[C@H](C)N)C(=O)O; test = LC-MS/MS; system = healthy human volunteers, plasma; conditions = continuous intravenous infusion, 15, 45, 90 mg/kg/h, 2 h infusion, experimental endotoxaemia; endpoint = time to steady state; result = ≤ 15 min
Structure (SMILES) = CC(=O)NCCc1c[nH]c(=S)n1[C@H]1COc2c(F)cc(F)cc2C1; system = healthy young male human, plasma; conditions = oral, 25 to 600 mg once daily; endpoint = time to steady state; result = ≤ 13000 min
Structure (SMILES) = Nc1ncnc(NCC2CCN(C(=O)C(O)CO)CC2)c1-c1ccc(Oc2ccccc2)cc1 (stereo not drawn); system = healthy male human, plasma; conditions = oral, 75 mg evobrutinib; scale = up to; endpoint = time observed; result = ≤ 8 h
Structure (SMILES) = Cc1ccccc1-c1cc(N2CC[N+](C)([O-])CC2)ncc1N(C)C(=O)C(C)(C)c1cc(C(F)(F)F)cc(C(F)(F)F)c1; system = human, plasma; endpoint = time quantifiable in plasma; result = 4 days
Structure (SMILES) = CC(C)(O)c1ncc([S@](N)(=O)=NC(=O)Nc2c3c(cc4c2CCC4)CCC3)s1; system = healthy human subjects, urine; conditions = oral, multiple ascending dose; endpoint = time of main urinary excretion; result = ≤ 12 h
Structure (SMILES) = [11CH3]Nc1ccc(-c2nc3ccc(O)cc3o2)cn1; test = PET; system = human, brain; conditions = intravenous, dose not given; endpoint = time to peak brain radioactivity; result = ~1 min
Structure (SMILES) = CN1CCN(c2cc(-c3ccccc3CO)c(N(C)C(=O)C(C)(C)c3cc(C(F)(F)F)cc(C(F)(F)F)c3)cn2)CC1; system = human, plasma; conditions = dose not given; endpoint = time to terminal elimination phase; result = 24 h
Structure (SMILES) = CC(C)[C@H](NC(=O)CNC(=O)[C@H](CCC(N)=O)NC(=O)[C@H](C)N)C(=O)O; system = human, plasma; conditions = continuous infusion, dose not given; endpoint = time to steady state; result = 15 min

A few entries again:
Structure (SMILES) = CC(=O)NCCc1c[nH]c(=S)n1[C@H]1COc2c(F)cc(F)cc2C1; system = healthy young male human, plasma; conditions = oral, 25 to 600 mg once daily; endpoint = time to steady state; result = ≤ 13000 min
